Published values gathered from unrelated publications.
Each line is one published result; not all experiments were run side by side. “And” joins repeats or separate records; there may be more than shown. ± gives the spread as reported.
MGLL: Monoglyceride lipase (MGLL, Homo sapiens, UniProt Q99685)
EPHX2: Bifunctional epoxide hydrolase 2 (EPHX2, Homo sapiens, UniProt P34913)
gag-pol integrase: Gag-Pol polyprotein, integrase (gag-pol, Human immunodeficiency virus 1, UniProt P12497)
CDPK1: Calcium-dependent protein kinase 1 (CDPK1, Plasmodium falciparum, UniProt P62344)
APC: Adenomatous polyposis coli protein (APC, Homo sapiens, UniProt P25054)
Tpo: Thyroid peroxidase (Tpo, Rattus norvegicus, UniProt P14650)
CACNA1I: Voltage-dependent T-type calcium channel subunit alpha-1I (CACNA1I, Homo sapiens, UniProt Q9P0X4)

COc1ccc([C@H](CC(=O)O)N2CCN(CCCc3ccc4c(n3)NCCC4)C2=O)cn1  IC50 (Integrin alpha-V/beta-8 (Homo sapiens, UniProt P06756+P26012); LAP binding, inhibitor, ELISA): 0.5 ± 0.2 nM
8-prenylnaringenin  IC50 (MGLL; enzyme activity, inhibitor; 15 min preincubation): 9500 nM
CC(C)NCc1ccc(C[C@@H]2NC(=O)[C@H](N(C)C(=O)c3ccc4ccccc4c3)NC(=O)[C@H](Cc3ccccc3)NC(=O)[C@H](N)CSSC[C@@H](C(=O)N[C@@H](Cc3ccc4ccccc4c3)C(N)=O)NC(=O)[C@H](Cc3ccccc3)NC2=O)cc1  IC50 (SSTR1 (Homo sapiens, UniProt P30872); ligand displacement, radioligand; cell membranes): 316 nM and 267 nM
Cn1ccnc1C(=O)C1CC1c1ccc(CC(=O)Nc2ccc(Br)cc2)cc1 (stereo not shown)  IC50 (HDAC6 (Homo sapiens, UniProt Q9UBN7); enzyme activity, inhibitor): > 200000 nM
Nc1cccc(C(=O)O)c1  IC50 (lipoxygenase; enzyme activity, inhibitor; pH 8.0, 25 °C, together with: linoleic acid): 61400 ± 360 nM
O=C(O)/C=C/c1ccc(O)c(O)c1  IC50 (firefly luciferase; luminescence signal, luminescence counter-screen; cell-free, after ADP processing; up to 77 µM, together with: ADP 1.25 µM, ATP 11.25 µM): no inhibition
O=C(O)c1cc2cc(Br)ccc2c(Br)c1O  IC50 (Glutamate NMDA receptor; Grin1/Grin2c (Rattus norvegicus, UniProt P35439+Q00961); ion current, two-electrode voltage clamp; oocytes): 5040 nM
N#Cc1ccc2c(ccn2CCC2CCN(C(=O)OC(C(F)(F)F)C(F)(F)F)CC2)c1  IC50 (MGLL; enzyme activity, inhibitor): 700 nM
CCCNC(=N)NCCC[C@H](N)C(=O)O  IC50 (Nitric oxide synthase 3 (Rattus norvegicus, UniProt Q62600); cGMP accumulation; rat aortic rings; 25 min preincubation, together with: acetylcholine 10 µM): 4300 nM and 4000 nM
C[C@]12C[C@@H]3C[C@](C)(C1)C[C@@](NC(=O)Nc1ccc(C(=O)N4CCC[C@H](C(=O)NCCCC(=O)NO)C4)cc1F)(C3)C2  IC50 (EPHX2; enzyme activity, inhibitor, fluorescence): 0.3 nM
O=C1c2cc3c(cc2-c2c1c1ccc(F)cc1c(=O)n2CCCNCCO)OCO3  IC50 (TDP1 (Homo sapiens, UniProt Q9NUW8); enzyme activity, inhibitor): 8700 nM and 11200 nM
O=C1/C(=C/c2ccccc2)C(N2CCOCC2)c2ccccc21 (stereo not shown)  IC50 (Dual specificity protein phosphatase 6 (Homo sapiens, UniProt Q16828); ERK phosphorylation restoration, inhibitor, chemical complementation; HeLa transfected with c-Myc-DUSP6; 15 min, together with: TPA): 50800 ± 4100 nM
OC1CCCc2cc(OCc3ccc(Cl)cc3)ccc21 (stereo not shown)  IC50 (MAOB (Homo sapiens, UniProt P27338); enzyme activity, inhibitor, fluorescence): 7.5 nM
C[C@]12C[C@@H]3C[C@](C)(C1)C[C@@](NC(=O)Nc1ccc(C(=O)N4CCC[C@H](C(=O)NCCCCCCC(=O)NO)C4)cc1F)(C3)C2  IC50 (EPHX2; enzyme activity, inhibitor, fluorescence): 0.3 nM
Cc1cc(C)c2nc(-c3ccccn3)cc(C(=O)Nc3ccc(S(=O)(=O)Nc4onc(C)c4C)cc3)c2c1  IC50 (GPR55 (Homo sapiens, UniProt Q9Y2T6); ERK1/2 phosphorylation, antagonist; U2OS cells expressing GPR55; 30 min, together with: LPI 10 µM): 200 ± 300 nM
O=C(O)c1ccc(/C=C2\SC(=O)N(c3cccc(C(F)(F)F)c3)C2=O)cc1  IC50 (CFTR (Homo sapiens, UniProt P13569); ion current, inhibitor): ~1000 nM
O=C(OC(C(F)(F)F)C(F)(F)F)N1CCC(CCCCn2ccc3ccc(F)cc32)CC1  IC50 (MGLL; enzyme activity, inhibitor): 450 nM
Cc1ncc([N+](=O)[O-])n1CC(C)O (stereo not shown)  IC50 (Cytochrome P450 2E1 (CYP2E1, Homo sapiens, UniProt P05181); enzyme activity, inhibitor; human liver microsomes; 30 min, together with: chlorzoxazone): > 500000 nM
CCOC(=O)/C(O)=C/C(=O)c1c[nH]c2cc(Cl)ccc2c1=O  IC50 (gag-pol integrase; 3'-processing, inhibitor, gel-based; together with: Mg2+): > 333000 nM
C[C@@H](CC(=O)NCc1cccc2ccccc12)NC(=O)[C@H](CC(=O)NC(C)(C)C)NC(=O)CCc1ccccc1  IC50 (Proteasome component C5/PSMB5 (Homo sapiens, UniProt P20618+P28074); chymotrypsin-like activity, inhibitor; together with: suc-LLVY-AMC): 76000 ± 25600 nM
COC(=O)CO[C@@H]1CC(=O)[C@@]2(C)CC[C@@H]3c4ccc(OCc5ccccc5)cc4CC[C@H]3[C@H]12  IC50 (HSD17B1 (Homo sapiens, UniProt P14061); enzyme activity, inhibitor, radiometric): 780 to 1500 nM
O=c1c2ccccc2[se]n1-c1ccccc1  IC50 (Neutrophil cytosol factor 1, tandem SH3 domain (NCF1, Homo sapiens, UniProt P14598); binding, fluorescence polarization; together with: rho PRD peptide): 300 nM
CCOC(=O)/C(O)=C/C(=O)c1cn(Cc2ccc(F)cc2)c2ccc(F)cc2c1=O  IC50 (gag-pol integrase; 3'-processing, inhibitor, gel-based; together with: Mg2+): > 333000 nM
COc1cc2ncnc(Nc3ccc(Cl)cc3F)c2cc1OC  IC50 (SRC (Homo sapiens, UniProt P12931); enzyme activity, inhibitor, ADP detection): 330 nM
O=P(O)(O)Oc1cc(OP(=O)(O)O)c(OP(=O)(O)O)cc1OCCOc1cc(OP(=O)(O)O)c(OP(=O)(O)O)cc1OP(=O)(O)O  IC50 (Inositol polyphosphate-5-phosphatase A (Homo sapiens, UniProt Q14642); enzyme activity, inhibitor; together with: Ins(1,4,5)P3 1.0 µM): 3550 nM
O=C(Nc1cccc(-c2nnc(C3CCCCC3)o2)c1)c1cc(F)cc(F)c1  IC50 (α-amylase; enzyme activity, inhibitor): 4720 nM
COc1ccc(-c2cn(CC3CC3)c3ncnc(N)c23)cc1OC  IC50 (CDPK1; enzyme activity, inhibitor): 589 nM and 588 nM
O=C(OC(C(F)(F)F)C(F)(F)F)N1CCC(Cn2ccc3ccccc32)CC1  IC50 (MGLL; enzyme activity, inhibitor): 550 nM
O=c1c(O)c(-c2ccc(O)c(O)c2)oc2cc(O)cc(O)c12  IC50 (firefly luciferase; luminescence signal, luminescence counter-screen; cell-free, after ADP processing; up to 77 µM, together with: ADP 1.25 µM, ATP 11.25 µM): no inhibition
C[C@]12C[C@@H]3C[C@](C)(C1)C[C@@](Nc1c(Nc4ccc(CN5CCC[C@H](C(=O)NCCCCCC(=O)NO)C5)cc4F)c(=O)c1=O)(C3)C2  IC50 (EPHX2; enzyme activity, inhibitor, fluorescence): 157 nM
O=C(Nc1ccn(Cc2ccc(O)cc2C(F)(F)F)n1)c1c(F)cccc1F  IC50 (Calcium release-activated calcium channel protein 1, with STIM1 (ORAI1, Homo sapiens, UniProt Q96D31); STIM1-mediated current, inhibitor, whole-cell patch clamp; HEK293 cells; estimated from single concentrations): 4100 nM
O=C(Cc1c[nH]c2ccccc12)Nc1cccc(-c2nnc(C3CCCCC3)o2)c1  IC50 (α-amylase; enzyme activity, inhibitor): 3400 nM
CC(Oc1ccc(Cl)cc1Cl)C(=O)Nc1cc(Cl)ccc1C(=O)O (stereo not shown)  IC50 (TRPM4 (Homo sapiens, UniProt Q8TD43); ion flux, inhibitor, fluorescence): 1800 nM
COc1ccc(N2C(=O)/C(=C\c3ccc([N+](=O)[O-])s3)SC2=S)cc1  IC50 (P4HB (Homo sapiens, UniProt P07237); insulin reduction, inhibitor, turbidity): 16600 ± 800 nM
CC1(C)c2cc3cc(-c4ccc(O)cc4O)c(=O)oc3cc2OC1CO (stereo not shown)  IC50 (RELA (Homo sapiens, UniProt Q04206); NF-κB activity, inhibitor): 700 nM
C[C@]12C[C@@H]3C[C@](C)(C1)C[C@@](NC(=O)Nc1ccc(C(=O)N4CCC[C@H](C(=O)NCCCCCC(=O)NO)C4)cc1F)(C3)C2  IC50 (EPHX2; enzyme activity, inhibitor, fluorescence): 0.4 nM
Cc1c(C)c2c(c(C)c1OS(=O)(=O)O)CCC(C)(COc1ccc(CC3SC(=O)NC3=O)cc1)O2 (stereo not shown)  IC50 (Organic solute transporter subunit alpha, with OSTβ (SLC51A, Homo sapiens, UniProt Q86UW1); DHEAS uptake, inhibitor; Flp-In 293 overexpressing OSTα/β; 30 s, together with: DHEAS 4 µM): 191000 nM and < 200000 nM
C=C(C)CCOP(=O)(O)OP(=O)(O)OP(=O)(O)OC[C@H]1O[C@@H](n2cnc3c(N)ncnc32)[C@H](O)[C@@H]1O  IC50 (LTK (Homo sapiens, UniProt P29376); enzyme activity, inhibitor, HotSpot kinase; together with: ATP 1 µM): 1500 nM
CCCN(CCC)c1ccc(C=O)cc1  IC50 (ALDH1A1 (Homo sapiens, UniProt P00352); enzyme activity, inhibitor, spectrophotometry; purified human erythrocyte enzyme; pH 8.4, together with: phenylacetaldehyde, 1 mM NAD): 1200 ± 100 nM
O=C(/C=C/c1ccc(O)cc1)CC(=O)/C=C/c1ccc(O)cc1  IC50 (HSD3B2 (Homo sapiens, UniProt P26439); enzyme activity, inhibitor; KGN cell homogenate; lower bound from 100 µM screen, together with: pregnenolone): < 100000 nM
CC(C)COc1cccc(CC(=O)N2CCNc3nc(C(F)(F)F)ccc3[C@H]2CC(=O)O)c1  IC50 (Neuromedin-B receptor (Nmbr, Mus musculus, UniProt O54799); radioligand binding; BALB cells expressing mouse NMBR; 60 min, 21 °C, together with: 50 pM radioligand): > 3000 nM
CC(C)C[C@H](NC(=O)[C@H](Cc1ccc2ccccc2c1)NC(=O)[C@H](CCC(=O)O)NC(=O)c1cccc(C=O)c1)C(=O)NC1CC1c1ccccc1 (stereo partly shown)  IC50 (APC; ligand displacement, FP): 54900 nM
COc1ccccc1-c1cn(CCN2CCOCC2)c2ncnc(N)c12  IC50 (CDPK1; enzyme activity, inhibitor): > 2000 nM
CSc1ncc(C(=O)N[C@@H](CCC(=O)O)C(=O)N[C@@H](Cc2ccc3ccccc3c2)C(=O)N[C@@H](CC(C)C)C(=O)NC2CC2c2ccccc2)cn1 (stereo partly shown)  IC50 (APC; ligand displacement, FP): 68800 nM
Cc1ccc(-c2c(C#N)c(N)n3c(nc4ccccc43)c2C#N)cc1  IC50 (AIFM2 (Homo sapiens, UniProt Q9BRQ8); enzyme activity, inhibitor, absorbance): 4000 nM
O=c1c(O)c(-c2ccc(O)cc2)oc2cc(O)cc(O)c12  IC50 (Tpo; tyrosine iodination, LC-MS/MS; rat thyroid microsomes; together with: KI 300 µM, H2O2 40 µM): 6580 nM
COC(=O)C1=C(C)NC(C)=C(C(=O)O[C@@H]2CCCN(Cc3ccccc3)C2)[C@@H]1c1cccc([N+](=O)[O-])c1 (racemic)  IC50 (CACNA1I; inhibitor, FLIPR calcium; HEK293 with GCaMP6s-CAAX, Kir2.3; together with: KCl at EC90): 3400 nM
CCCS(=O)(=O)Nc1cc(-c2cc(-c3ccc(N4CCNCC4)cc3)cnc2N)cc(OCC)c1OC  IC50 (RIPK2 (Homo sapiens, UniProt O43353); kinase activity, inhibitor, ADP-Glo; tested up to 10 µM): > 10000 nM
Oc1ccc(/C=C/c2cc(O)cc(O)c2)cc1  IC50 (Tpo; enzyme activity, inhibitor, LC-MS/MS, item: monoiodotyrosine; rat thyroid microsomes; together with: L-tyrosine substrate): 730 nM and 760 nM
O=C(Nc1cccc(C(F)(F)F)c1)Nc1ccc(Br)cc1-c1nn[nH]n1  IC50 (CACNA1I; inhibitor, FLIPR calcium; HEK293 with GCaMP6s-CAAX, Kir2.3; together with: KCl at EC90): 37000 nM
O=C(O[C@@H]1Cc2c(O)cc(O)cc2O[C@@H]1c1cc(O)c(O)c(O)c1)c1cc(O)c(O)c(O)c1  IC50 (Tpo; enzyme activity, inhibitor, LC-MS/MS, item: monoiodotyrosine; rat thyroid microsomes; together with: L-tyrosine substrate): 390 nM and 310 nM
O=C(NNC(=O)c1ccc(CNS(=O)(=O)c2ccc(F)c(Cl)c2)cc1)c1ccccc1  IC50 (Glutamate NMDA receptor; Grin1/Grin2a (Grin1/Grin2a, Rattus norvegicus, UniProt P35439+Q00959, V783S); ion current, two-electrode voltage clamp; oocytes): 660 nM

Excerpt of the above:
O=C(O)c1ccc(/C=C2\SC(=O)N(c3cccc(C(F)(F)F)c3)C2=O)cc1  IC50 (CFTR (Homo sapiens, UniProt P13569); ion current, inhibitor): ~1000 nM
O=C(OC(C(F)(F)F)C(F)(F)F)N1CCC(CCCCn2ccc3ccc(F)cc32)CC1  IC50 (MGLL; enzyme activity, inhibitor): 450 nM
Cc1ncc([N+](=O)[O-])n1CC(C)O (stereo not shown)  IC50 (Cytochrome P450 2E1 (CYP2E1, Homo sapiens, UniProt P05181); enzyme activity, inhibitor; human liver microsomes; 30 min, together with: chlorzoxazone): > 500000 nM
CCOC(=O)/C(O)=C/C(=O)c1c[nH]c2cc(Cl)ccc2c1=O  IC50 (gag-pol integrase; 3'-processing, inhibitor, gel-based; together with: Mg2+): > 333000 nM
C[C@@H](CC(=O)NCc1cccc2ccccc12)NC(=O)[C@H](CC(=O)NC(C)(C)C)NC(=O)CCc1ccccc1  IC50 (Proteasome component C5/PSMB5 (Homo sapiens, UniProt P20618+P28074); chymotrypsin-like activity, inhibitor; together with: suc-LLVY-AMC): 76000 ± 25600 nM
COC(=O)CO[C@@H]1CC(=O)[C@@]2(C)CC[C@@H]3c4ccc(OCc5ccccc5)cc4CC[C@H]3[C@H]12  IC50 (HSD17B1 (Homo sapiens, UniProt P14061); enzyme activity, inhibitor, radiometric): 780 to 1500 nM
